Results gathered from unrelated publications.
“And” joins repeats or separate records; there may be more than shown. ± marks the error that the study gave.

| SMILES | tested on | assay | system | setting | scale | measurement | value |
| --- | --- | --- | --- | --- | --- | --- | --- |
| COc1ccc(F)cc1C(=O)NCc1ccc(-c2nn([C@@H](C)C(F)(F)F)c(N)c2C(N)=O)cc1 |  |  | CLL/SLL patients | dose not given, prior BTKi stopped for toxicity/other |  | overall response rate | 52% |
| N#CC[C@H](C1CCCC1)n1cc(-c2ncnc3[nH]ccc23)cn1 |  |  | Balb/c mice, oxazolone atopic dermatitis | day 11, unit not given | relative to: vehicle | ear thickness difference | -0.121 |
| N#Cc1ccc2c(c1)[C@H]1CCCN(C(=O)c3ccc4[nH]cnc4c3)[C@H]1C2 |  | refers to: androstenedione | human female, Phase II trial | oral, 240 mg once daily, HPA axis, mean |  | change from baseline | 2.33 nmol/L |
| O=C1Nc2cc3[nH]nc(-c4ccncc4)c3cc2CN1Cc1ccccc1 |  | RECIST v1.1 | human, relapsed or refractory advanced solid tumours | intravenous, 9.6 mg/kg, pooled schedules |  | stable disease, best response | 22% |
| CC[C@@H]1[C@H](F)C(=O)N[C@@H]1COc1nccc2cc(C(N)=O)c(OC)cc12 |  | ATP-site probe binding, ActivX profiling, refers to: MARK1, MARK2 | THP-1 cell lysate | 0.04 mM, Lys1 site |  | inhibition | 8.3% |
| Cn1cc(-c2ccc(-c3cncc(Cl)c3N3CCC4(CCNC4=O)CC3)cc2)cn1 | COLO 205 | gene expression, microarray, refers to: LAMP3 mRNA |  | concentration not given, 2 h | relative to: untreated cells | log2 fold change | 1.82 |
| COc1ccc(-c2cncc(N[C@@H](C)c3cccc(NC(=O)c4cncc(C)c4)c3)n2)cc1OC |  | refers to: rno-miR-329-3p | rat SU5416/hypoxia model, lung | dose not given | relative to: SU5416/hypoxia vehicle | fold change | 1.08 |
| CC(C)[C@H](C(=O)Nc1ccc(C(=O)NO)cc1)c1ccccc1 |  | volumetric MRI | human, left parieto-occipital meningioma | dose not given, day 834 | relative to: baseline | tumour volume change | 54.4% |
| COC(=O)c1cc(O)c(O)c(O)c1 |  | glucuronidation kinetics | Wistar rat liver microsomes |  |  | substrate inhibition constant | 54.9 ± 32.9 µM |
| OC(CCN1CCCCC1)(c1ccccc1)C1CC2C=CC1C2 (stereo not shown) |  | resting-state EEG | healthy elderly humans | oral, 2 mg, eyes open, LS mean | relative to: baseline | delta power change, EEG, in Pz-O1 | 25.1% |
| CC(C)C[C@H](NC(=O)C[C@H](O)[C@H](CC(C)C)NC(=O)[C@H](Cc1c[nH]cn1)NC(=O)CNC(=O)[C@@H](NC(=O)[C@H](C)NC(=O)[C@H](Cc1c[nH]c2ccccc12)NC(=O)[C@H](CCC(N)=O)NC(=O)[C@@H](Cc1ccccc1)NC(=O)COCCOCCNC(=O)CCC(C(=O)O)N1CCN(CC(=O)O)CCN(CC(=O)O)CCN(CC(=O)O)CC1)C(C)C)C(N)=O (stereo partly shown) [lutetium-177 labelled] |  |  | BALB/c nu/nu mice, brain | intravenous, 250 pmol, 1 h, with: PA 300 µg |  | tissue uptake | 0.03 ± 0.01 %ID/g |
| CCCn1cc(C)c2c(=O)[nH]c(-c3cc(S(=O)(=O)N4CCN(CC)CC4)ccc3OCC)nc21 |  |  | supine | concentration not given, 0 to 4 h | relative to: baseline | maximal mean SBP decrease | 6.26 mmHg |
| C=CCn1c(=O)c2cnc(Nc3ccc(N4CCN(C)CC4)cc3)nc2n1-c1ccc2c(n1)[C@@](O)(CC)CC2 |  |  | NCI-H82 xenograft, BALB/c nude mice | oral, 80 mg/kg once daily x 21, day 20 |  | tumour volume difference | 1450 ± 105 mm3 |
| N#Cc1ccn2c(-c3ccncc3)c(-c3ccc(F)cc3)nc2c1 |  | kinase binding, competitor, MIB/MS competition, refers to: ENV7 | Candida albicans cell lysate | 1 µM | relative to: DMSO | log2 fold change | -0.0233 |
| CC(C)C[C@@H](C=O)NC(=O)[C@H](CC(C)C)NC(=O)[C@H](CC(C)C)NC(=O)OCc1ccccc1 |  | refers to: Ub(G76V)-GFP |  | 0.625 µM |  | degradation rate constant | 0.0089 min⁻¹ |
| COCCN(C)C(=O)c1ccc(C2CCCCC2)cc1 |  | hepatocyte stability | cryopreserved rat hepatocytes | 1 µM |  | hepatic clearance | 47 mL/min/kg |
| O=C(COc1ccc(Cl)cc1)NC12CC(c3nnc([C@H]4C[C@@H](OC(F)(F)F)C4)o3)(C1)C2 |  |  | healthy human, PBMC | 145 mg once daily, day 14, 4 h post-dose, median, with: sodium arsenite ex vivo | relative to: baseline | CHAC1 mRNA change | -95.7% |
| CC(c1cc2ccccc2s1)N(O)C(N)=O (stereo not shown) |  | refers to: 15-HETE | human whole blood | 3 µM, with: Escherichia coli |  | amount | 1760 ± 353 pg/mL blood |
| CC(C)NCC(O)c1ccc(O)c(O)c1 (stereo not shown) |  |  | ventricular cardiomyocytes, C57BL/6 mouse | dose not given, 0.24 s |  | sarcomere length | 1.56 µm |

| SMILES | tested on | assay | system | setting | scale | measurement | value |
| --- | --- | --- | --- | --- | --- | --- | --- |
| Cc1n[nH]c2ccc(-c3cc(OC[C@@H](N)Cc4ccccc4)cnc3-c3ccoc3)cc12 |  | kinase binding, competitor, MIB/MS competition, refers to: CAK1 | Candida albicans cell lysate | 100 nM | relative to: DMSO | log2 fold change | -0.167 |
| C[C@H](Oc1ccc(Br)cc1-c1ccon1)C(=O)O |  | first response peak | human, tibialis anterior muscle | 200 mg, 15 Hz, single ascending dose |  | difference from placebo | 4.95% |
| C[C@H]1O[C@@H](O[C@H]2CC[C@@]3(C)[C@@H](CC[C@]4(C)[C@@H]3C=C[C@]35OC[C@@]6(CCC(C)(C)C[C@H]63)[C@@H](O)C[C@]54C)[C@]2(C)CO)[C@H](O)[C@@H](O[C@@H]2O[C@H](CO)[C@@H](O)[C@H](O)[C@H]2O)[C@H]1O |  |  | Mus musculus, chronic-plus-binge ethanol-fed, liver | oral, 15 mg/kg/day, 168 h, dosed for 7 days |  | hepatic triglycerides | 0.0888 mmol/g protein and 0.0721 mmol/g protein and 0.0825 mmol/g protein and 0.0831 mmol/g protein and 0.0953 mmol/g protein and 0.0907 mmol/g protein |
| COc1cc(Nc2ncc3c(n2)-c2ccc(Cl)cc2C(c2c(F)cccc2OC)=NC3)ccc1C(=O)O |  |  | female NOD/scid mice, ALL-8 T-cell ALL xenograft | 10.4 mg/kg, 5 days weekly, score scale 0 to 10 | direction not given | median response score | 8 |
| N=C(N)NCCC[C@H](NC(=O)[C@H](CCCNC(=N)N)NC(=O)[C@H](CCCCN)NC(=O)[C@H](CCC(N)=O)NC(=O)[C@H](CCCCN)NC(=O)[C@H](Cc1ccc(O)cc1)NC(=O)[C@@H](N)CCCCN)C(=O)N[C@@H](CO)C(=O)N[C@@H](Cc1ccc(O)cc1)C(=O)N[C@@H](CCCCN)C(=O)O |  | air evaporative stimulus | dentin hypersensitivity patients | 5 µg/tooth single, day 22, phase 1/2a | relative to: baseline, direction not given | Schiff sensitivity score change | -0.67 ± 0.82 |
| COc1cc(F)c([C@@H]2CNC(=O)[C@H]2NC(=O)Nc2ccccc2)c(F)c1 |  | terminal haemodynamics | rat, permanent coronary occlusion MI | 1 mg/kg, 1008 h, 6 weeks post-MI |  | LV dP/dtmax | 5860 ± 707 mmHg/s |
| CO[C@H]1CC[C@H](N2C(=O)CNc3ncc(-c4ccc(C(C)(C)O)nc4)nc32)CC1 |  | flow cytometry | stimulated monocytes, human, blood | 30 mg single dose, 5 h, median | relative to: baseline | pAKT change from baseline | -51.1% |
| O[C@H]1CCCN[C@@H]1CCCn1cnc2c(Cl)c(Cl)ccc21 |  | ELISA, refers to: Pro-C3 | healthy human volunteers, serum | 25 mg, day 1, multiple ascending dose |  | maximum reduction | 26.1% |
| O=C(NCC1CCOCC1)c1ccc(C2CCCCC2)cc1 |  | hepatocyte stability | cryopreserved rat hepatocytes | 1 µM |  | hepatic clearance | 46 mL/min/kg |
| NC(=O)c1cnc2[nH]ccc2c1N[C@@H]1[C@@H]2CC3C[C@H]1C[C@@](O)(C3)C2 |  | flow cytometry, refers to: CD4+ memory T cells | Japanese healthy subjects, peripheral blood | oral, 10 mg twice daily, day 4 |  | change from baseline | 0.18% |
| O=C(O)/C=C/c1ccc(O)c(O)c1 |  | western blot, refers to: HO-1 and NQO1 | C57BL/6 mouse, myocardial ischaemia-reperfusion, heart | dose not given |  | protein level | increased |
| C[C@@H]1C[C@H]2[C@@H]3CCC4=CC(=O)C=C[C@]4(C)[C@@]3(F)[C@@H](O)C[C@]2(C)[C@@]1(O)C(=O)CO |  |  | BALB/c mice, oxazolone atopic dermatitis | topical, 20 mg/ear, 552 h, day 23, unit not given | relative to: vehicle | ear thickness difference | -0.321 |
| CSCCNc1nc(SCCC(F)(F)F)nc2c1ncn2[C@@H]1O[C@H](COP(=O)(O)OP(=O)(O)C(Cl)(Cl)P(=O)(O)O)[C@@H](O)[C@H]1O |  | ADP-induced platelet aggregation, LTA | human patients, platelet-rich plasma | dose not given, 4 to 6 h, with: ADP 5 µM |  | inhibition | 28 ± 25.7% |
| CO[C@@H](C(=O)N1Cc2n[nH]c(NC(=O)c3ccc(N4CCN(C)CC4)cc3)c2C1)c1ccccc1 |  |  | human | concentration not given |  | CA125 decline | ≥ 30% and 30% |
| O=c1cc(-c2ccccc2)oc2cc(O)c(O)c(O)c12 |  | H&E staining | ApoE-/- mouse, aortic sections | oral gavage, dose not given |  | foam cell formation | decreased |
| O=C(O)CNC(=O)Cc1ccccc1 |  |  | ventricular cardiomyocytes, C57BL/6 mouse | dose not given, 0.392 s |  | sarcomere length | 1.72 µm |
| N#Cc1ccc2c(-c3ccncc3)c(-c3ccc(F)cc3)nn2c1 |  | kinase binding, competitor, MIB/MS competition, refers to: CKA2 | Candida albicans cell lysate | 10 µM | relative to: DMSO | log2 fold change | 0.302 |
| C[C@H]1C[C@H]2CSC(N)=N[C@@]2(c2nc(NC(=O)c3ccc(OC(F)F)cn3)cs2)CO1 |  | refers to: Aβ1-40 | healthy adults, plasma | 40 mg single dose, 48 h post-dose | relative to: placebo | percent change from baseline | -57.4% |

For quick reference, copied from above:
| SMILES | tested on | assay | system | setting | scale | measurement | value |
| --- | --- | --- | --- | --- | --- | --- | --- |
| O=C(O)CNC(=O)Cc1ccccc1 |  |  | ventricular cardiomyocytes, C57BL/6 mouse | dose not given, 0.392 s |  | sarcomere length | 1.72 µm |
| N#Cc1ccc2c(-c3ccncc3)c(-c3ccc(F)cc3)nn2c1 |  | kinase binding, competitor, MIB/MS competition, refers to: CKA2 | Candida albicans cell lysate | 10 µM | relative to: DMSO | log2 fold change | 0.302 |
| C[C@H]1C[C@H]2CSC(N)=N[C@@]2(c2nc(NC(=O)c3ccc(OC(F)F)cn3)cs2)CO1 |  | refers to: Aβ1-40 | healthy adults, plasma | 40 mg single dose, 48 h post-dose | relative to: placebo | percent change from baseline | -57.4% |
